# Assay results from different studies.
# Each numbered part is a random draw from the data of one study; scales do not carry over between parts. Changes are numbered by the printed parent chain.

# Series 1 — technique: aptamer microarray, sandwich; form: DNA with 2'F-ANA; sample: in vitro; tested at: 200 nM; with: Cy3 exosite-II aptamer, 400 nM; reading: higher = stronger binding; strand: GGTTGGTGTGGTTGG
# Target: Prothrombin, mature alpha-thrombin (F2, Homo sapiens, UniProt P00734)
# Setting: whole 15-mer aptamer, many near background
Modification,mean fluorescence intensity [a.u.]
2'F-ANA at 1 8 9 10 11 12 13 15,69.4
2'F-ANA at 2 4 5 6 9 12 15,120
2'F-ANA at 3 5 11 13 14 15,54.8
2'F-ANA at 3 4 5 10 12 14,52.3
2'F-ANA at 1 2 3 4 5 8 9 10 11 12 13 14 15,55.5
2'F-ANA at 1 3 4 6 7 9 11 12 13 15,163
2'F-ANA at 1 5 6 9 10 14,60.4
2'F-ANA at 2 8 10 12 15,174

# Series 2 — target: OGT, full length, His-tagged (human); technique: phage display, sequencing; sample: in vitro; tested at: 1 µg OGT; reference: input library; reading: higher = stronger binding; starting sequence: peptide; NSEYMPQYQIIFAHQ
# Setting: single substitutions, 15-mer displayed peptide, unchanged parent 16.7
Change,fold enrichment
NSEYAPQYQIIFAHQ [M5A],13 fold
NSEYMSQYQIIFAHQ [P6S],1.48 fold
NSEYMPQYQIINAHQ [F12N],0.355 fold
NSPYMPQYQIIFAHQ [E3P],24.3 fold
NSEEMPQYQIIFAHQ [Y4E],0.541 fold
NSEYMPQEQIIFAHQ [Y8E],0.705 fold
NSENMPQYQIIFAHQ [Y4N],0.695 fold
NSEYMPQNQIIFAHQ [Y8N],0.387 fold

# Series 3 — technique: protein-binding microarray; form: double-stranded DNA, one strand shown; sample: in vitro; tested at: not given; reading: higher = stronger binding
# Target: Hepatocyte nuclear factor 3-beta, forkhead domain (FOXA2, Homo sapiens, UniProt Q9Y261, residues 142-269)
# Setting: k-mer, scored over probes, only values ≥0.25
# Construct (chain): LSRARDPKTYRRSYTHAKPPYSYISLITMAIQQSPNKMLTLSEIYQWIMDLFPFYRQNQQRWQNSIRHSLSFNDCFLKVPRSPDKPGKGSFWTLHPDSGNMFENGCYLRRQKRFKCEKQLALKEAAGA
Strand,E-score
ACATTTTA,0.273
TTATTGAA,0.315
GTACTACA,0.359
ATTCTACA,0.308
ATAACGAA,0.329
ATATGTGG,0.363
ATATCATA,0.403
AAATATTC,0.285

# Further values, each from its own experiment
# Starting sequence: viral docking peptide; KKAKRRLFTISDS; partner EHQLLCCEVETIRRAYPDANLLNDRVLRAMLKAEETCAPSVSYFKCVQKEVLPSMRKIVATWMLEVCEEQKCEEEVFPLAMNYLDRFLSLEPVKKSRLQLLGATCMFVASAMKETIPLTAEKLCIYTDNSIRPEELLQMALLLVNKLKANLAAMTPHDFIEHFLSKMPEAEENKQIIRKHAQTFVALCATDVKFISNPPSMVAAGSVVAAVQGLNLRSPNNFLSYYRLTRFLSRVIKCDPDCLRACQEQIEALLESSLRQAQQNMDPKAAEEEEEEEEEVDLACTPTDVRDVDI
Change,target,test,system,conditions,scale,measurement,value
KKAARRLFTISDS [K4A],"CCND1, cyclin fold, Cln2 fusion (human)","yeast growth competition, sequencing",yeast,weak parent motif,"reference: not given, higher = stronger binding",normalised enrichment score,-0.0298

# For quick reference, copied from above (series 3):
Strand,E-score
TTATTGAA,0.315
GTACTACA,0.359
ATTCTACA,0.308
ATAACGAA,0.329
